Experimental data collected from several papers.
Each line is one published result; not all experiments were run side by side. Several values in a cell are separate wells, animals, samples, runs or records. ± gives the spread as reported.

| Compound | test | system | setting | fraction unbound |
| --- | --- | --- | --- | --- |
| C[C@H]1CN(c2cccc(-c3ccc4ncnc(Nc5ncco5)c4c3)c2)CCO1 |  | human plasma |  | < 0.0033 |
| Nc1nnc(-c2cccc(Cl)c2Cl)c(N)n1 |  | mouse brain |  | 0.162 |
| c1cc(-c2ccc3ncnc(Nc4ncco4)c3c2)nc(N2CCOCC2)n1 |  | human plasma |  | 0.016 |
| CCn1c(C(=O)N(C2CC2)C2CC2)cc2c3c(ncn3C)c(Nc3cc(C)n(C)n3)nc21 |  | plasma |  | 0.02 |
| Cc1ccccc1CN1C(=O)C2=C(CCN(Cc3ccccc3)C2)N2CCN=C12 | equilibrium dialysis | plasma | 7.73 mg/L | 0.0492 |
| CCOC(=O)c1ncn2c1CN(C)C(=O)c1cc(F)ccc1-2 | ultrafiltration | rat plasma | 5 µM, 30 min | 0.14 |
| C[C@@H](N)COc1ccc(-c2cnc3ccc(N[C@H](C)c4cccc(F)c4)nn23)cc1 | equilibrium dialysis | cell medium with 10% FBS |  | 0.62 |
| CCOC(F)(F)c1nnc2cnc(-c3cnc(OCC(F)(F)F)c(F)c3)cn12 |  | mouse brain |  | 0.015 |
| N#C[C@@]12C[C@@H]1[C@@H](n1cnc3c(N[C@@H](C4CCC4)C4CC4)nc(I)nc31)[C@H](O)[C@@H]2O | plasma protein binding | rat plasma |  | 0.0163 |
| C=CC(=O)Nc1cc(Nc2ncc(C(=O)OC(C)C)c(-c3cn(C)c4ccccc34)n2)c(OC)cc1N(C)CCN(C)C |  | rat brain slices |  | 0.0008 ± 0.0001 |
| CCCC[C@@H]1NC(=O)[C@H](Cc2ccc(O)cc2)NC(=O)[C@@H]2CCCN2C(=O)[C@H](CC(=O)O)NC(=O)[C@H](C)NC(=O)[C@H](Cc2ccccc2)NC(=O)[C@@H]2CSCCC(=O)N3CN(CN(C3)C(=O)CCSC[C@@H](C(=O)N[C@@H](C)C(N)=O)NC1=O)C(=O)CCSC[C@H](NC(C)=O)C(=O)N[C@@H](CC(C)(C)C)C(=O)N1CCC[C@H]1C(=O)N[C@@H](CCC(=O)O)C(=O)N[C@H](CCCCNC(=O)CCc1cn(CCOCCOCCOCCOCCOCCOCCOCCOCCOCCOCCNC(=O)CCOCCN(CCOCCC(=O)NCCOCCOCCOCCOCCOCCOCCOCCOCCOCCOCCn3cc(CCC(=O)NCCCC[C@H]4NC(=O)[C@H](CCC(=O)O)NC(=O)[C@@H]5CCCN5C(=O)[C@H](CC(C)(C)C)NC(=O)[C@@H](NC(C)=O)CSCCC(=O)N5CN6CN(C5)C(=O)CCSC[C@H](NC(=O)[C@H](Cc5ccc(O)cc5)NC(=O)[C@@H]5CCCN5C4=O)C(=O)N[C@@H](Cc4ccccc4)C(=O)N[C@@H](C)C(=O)N[C@@H](CC(=O)O)C(=O)N4CCC[C@H]4C(=O)N[C@@H](Cc4ccc(O)cc4)C(=O)N[C@@H](CCCC)C(=O)N[C@H](C(=O)N[C@@H](C)C(N)=O)CSCCC6=O)nn3)CCOCCC(=O)NCCOCCOCCOCCOCCOCCOCCOCCOCCOCCOCCn3cc(CCC(=O)N[C@H]4CSCCC(=O)N5CN6CN(C5)C(=O)CCSC[C@H](NC(=O)[C@@H](CC(=O)O)NC(=O)[C@H](Cc5cccc7ccccc57)NC(=O)[C@@H]5CCCN5C4=O)C(=O)N[C@@H](CCSC)C(=O)N[C@@H](CCCCNC(=N)N)C(=O)N[C@@H](CC(=O)O)C(=O)N[C@@H](Cc4c[nH]c5ccccc45)C(=O)N[C@@H](CO)C(=O)N[C@@H]([C@@H](C)O)C(=O)N4CCC[C@H]4C(=O)N4C[C@H](O)C[C@H]4C(=O)N[C@@H](Cc4c[nH]c5ccccc45)C(=O)N[C@H](C(N)=O)CSCCC6=O)nn3)nn1)C(=O)N1CCC[C@H]1C(=O)N[C@@H](Cc1ccc(O)cc1)C(=O)N2 | ultracentrifugation | rat plasma |  | 0.24 |
| COc1cc2nc(N3CCN(C(=O)C4COc5ccccc5O4)CC3)nc(N)c2cc1OC (stereo not drawn) | equilibrium dialysis | human plasma |  | 0.066 |
| O=[N+]([O-])c1ccc(Nc2ccnc3ccc(-c4ccc(S(=O)(=O)N5CCOCC5)cc4)cc23)cn1 |  | human plasma |  | 0.024 |
| CCC(C)n1ncn(-c2ccc(N3CCN(c4ccc(OCC5COC(Cn6cncn6)(c6ccc(Cl)cc6Cl)O5)cc4)CC3)cc2)c1=O (stereo not drawn) | equilibrium dialysis | human liver microsomes 0.025 mg/mL |  | 0.27 ± 0.028 |
| NC/C(=C\F)COc1cccc(Cn2c(=S)[nH]c(=O)c3[nH]cnc32)c1 |  | rat plasma | 10 µM, 5 (unit not given) | 0.15 |
| O=S(=O)(c1ccc(-c2ccc3nccc(Nc4cncs4)c3c2)cc1)N1CCOCC1 |  | human plasma |  | 0.038 |
| CC(C)NCC(O)COc1cccc2ccccc12 (stereo not drawn) | rapid equilibrium dialysis | rat plasma | 2 µM, 6 h, pH 7.4 | 0.15 |
| CC(C)N1Cc2cc(C(F)(F)F)ncc2C2=CN=C(NCc3c(F)ccc4c3CCO4)N3C=NC(C1=O)C23 (stereo not drawn) |  | rat plasma |  | 0.01 |
| CC#Cc1cncc(-c2ccc3c(c2)[C@@]2(N=C(C)C(N)=N2)[C@]2(CC[C@H](OC)CC2)C3)c1 | equilibrium dialysis | rat plasma | 6 h, pH 7.4 | 0.05 |
| c1coc(Nc2ncnc3ccc(-c4cncc(N5CCOCC5)n4)cc23)n1 |  | human plasma |  | 0.025 |
| Cc1cc(Nc2ccc(S(F)(F)(F)(F)F)cc2)n2nc(C(C)(F)F)nc2n1 | rapid equilibrium dialysis | CD-1 mouse plasma | 24 h | 0.025 ± 0.0097 |
| Clc1ccc(COc2cncc(-c3cnn(C4CCNCC4)c3)c2)c(Cl)c1 |  | mouse brain |  | 0.0014 |
| Cc1nn(C)cc1S(=O)(=O)NC(=O)c1ccc(-n2ccc(OCC(C)(C)C(F)(F)F)n2)nc1N1C[C@@H](C)CC1(C)C | rapid equilibrium dialysis | human, plasma | 6 h post-dose | 0.004 |

| Compound | test | system | setting | fraction unbound |
| --- | --- | --- | --- | --- |
| O=S(=O)(c1ccc(-c2ccc3nccc(Nc4cccnc4)c3c2)cc1)N1CCOCC1 |  | human plasma |  | 0.053 |
| O=C1C2N=CN3C(NCc4c(F)ccc5c4CCO5)=NC=C(c4cnc(C(F)(F)F)cc4CN1CC(F)F)C23 (stereo not drawn) |  | human plasma |  | < 0.01 |
| C[C@@H](O)[C@H](NC(=O)[C@H](Cc1ccc(O)cc1)NC(=O)[C@H](Cc1ccc(O)cc1)NC(=O)[C@H](CO)NC(=O)[C@H](CCCNC(=N)N)NC(=O)[C@H](Cc1c[nH]cn1)NC(=O)[C@@H](N)Cc1c[nH]c2ccccc12)C(=O)N[C@@H](Cc1c[nH]c2ccccc12)C(=O)N[C@@H](CC(N)=O)C(N)=O |  | human serum albumin |  | 0.16 |
| O=C(CS(=O)(=O)O)Nc1ccc(N2CCOCC2)c(Br)c1 | equilibrium dialysis | mouse plasma | 4.5 h | > 0.2 |
| CCC(C)n1ncn(-c2ccc(N3CCN(c4ccc(OCC5COC(Cn6cncn6)(c6ccc(Cl)cc6Cl)O5)cc4)CC3)cc2)c1=O (stereo not drawn) | rapid equilibrium dialysis | 10% human plasma | 2 µM, 24 h, pH 7.4 | 0.0009 |
| CC(=O)CC(c1ccccc1)c1c(O)c2ccccc2oc1=O (stereo not drawn) | rapid equilibrium dialysis | human plasma | 2 µM, 4 h, pH 7.4, 37 °C | 0.0207 |
| CCCCCCCCCC(=O)N[C@@H](Cc1c[nH]c2ccccc12)C(=O)N[C@H](CC(N)=O)C(=O)N[C@@H](CC(=O)O)C(=O)N[C@@H]1C(=O)NCC(=O)N[C@@H](CCCN)C(=O)N[C@@H](CC(=O)O)C(=O)N[C@H](C)C(=O)N[C@@H](CC(=O)O)C(=O)NCC(=O)N[C@H](CO)C(=O)N[C@@H]([C@H](C)CC(=O)O)C(=O)N[C@@H](CC(=O)c2ccccc2N)C(=O)O[C@@H]1C | rapid equilibrium dialysis | human plasma | 1 µM, 2 h, 37 °C | < 0.02 |
| O=C(NO)c1ccc(CN(c2cnccn2)c2cnccn2)cc1 |  | mouse plasma |  | 0.58 |
| COc1ccc(Nc2ccnc3ccc(-c4ccc(S(=O)(=O)N5CCOCC5)cc4)cc23)cc1C |  | human plasma |  | 0.005 |
| O=C(Cc1ccc(F)c(C(F)(F)F)c1)N1CCN(c2ccc3nncn3n2)CC1 | ultrafiltration | human plasma | 1 µM, 0.5 h | 0.16 |
| C=CC(=O)Nc1cc(Nc2nccc(-c3cn(C)c4ccccc34)n2)c(OCC(F)(F)F)nc1N(C)CCN(C)C | rapid equilibrium dialysis | human plasma | 0.1 µg/mL | 0.57% and 0.56% and 1.46% |
| Cn1cc(Nc2ncnc3ccc(-c4cccc(N5CCOCC5)c4)cc23)cn1 |  | human plasma |  | 0.0096 |
| CCn1nccc1Nc1ccnc2ccc(-c3ccc(S(=O)(=O)N4CCOCC4)cc3)cc12 |  | human plasma |  | 0.058 |
| Cc1onc(-c2ccccc2Cl)c1C(=O)N[C@@H]1C(=O)N2[C@@H]1SC(C)(C)[C@@H]2C(=O)O | ultrafiltration | human, patient plasma |  | 0.35 |
| COc1cc2c3c(n(CCCN4CCOCC4)c(=O)c2cc1OC)-c1cc2c(cc1C3=O)OCO2 | equilibrium dialysis | culture medium, 10% FBS | 10760 ng/mL, 24 h | 0.015 |
| Cc1noc2c1-c1ccccc1C(c1ccc(Cl)cc1)=N[C@H]2CC(N)=O | equilibrium dialysis | mouse plasma | 10 µM, 4 h, pH 7.4 | 0.0325 ± 0.0062 |
| C[C@@H]1COCCN1c1cccc(-c2ccc3ncnc(Nc4ncco4)c3c2)c1 |  | human plasma |  | 0.0072 |
| C=CC(=O)Nc1cc(Nc2nccc(Nc3cc(Cl)c(F)cc3C(C)(C)O)n2)c(OC)cc1N1CC[C@@H](N(C)C)C1 |  | human plasma |  | 0.085 |
| Cn1c(=O)c2c(ncn2C)n(C)c1=O | rapid equilibrium dialysis | human plasma | 2 µM, 6 h, pH 7.4 | 0.753 |
| N#C[C@@]1(c2ccc3c(N)ncnn23)O[C@H](CO)[C@@H](O)[C@H]1O |  | monkey plasma | 10 µM | 0.811 |
| C[C@@H]1CN(Cc2ncccn2)C[C@H]1c1nc2c(cnn2C2CCOCC2)c(=O)[nH]1 | equilibrium dialysis | mouse plasma | 6 h | 0.87 |
| CO[C@H]1/C=C/O[C@@]2(C)Oc3c(C)c(O)c4c(c3C2=O)C2=NC3(CCN(CC(C)C)CC3)NC2=C(NC(=O)/C(C)=C/C=C/[C@H](C)[C@H](O)[C@@H](C)[C@@H](O)[C@@H](C)[C@H](OC(=O)Nc2c(C)nc3ccccn23)[C@@H]1C)C4=O |  | human plasma |  | 6.55 |
